# Measured values from different studies.
# Compare with care: the assays were run in different laboratories.
Structure (SMILES),assay,test system,setting,quantity,value
CNC(=O)c1cc(Oc2ccc(NC(=O)Nc3cc(C(C)(C)C)nn3-c3ccc4ncccc4c3)c(F)c2)ccn1,,"human, trial","oral, dose not given, all doses",patients with related serious Pancreatitis AE,2%
Cc1cn([C@H]2O[C@@H](CO[P@@](=O)(N[C@@H](C)C(=O)OC(C)C)Oc3ccccc3)[C@H](O)[C@H]2F)c(=O)[nH]c1=O,refers to: Headache,human,10 mg,patients with TEAE,0%
N[C@@H]1c2ccccc2OC12CCN(c1cnc3c(N4CCCc5ncccc54)n[nH]c3n1)CC2,refers to: dyspnea,human advanced or metastatic solid tumours,"oral, dose not given, phase Ia all doses",patients with adverse event,30%
C=CC(=O)Nc1cc(Nc2nccc(Nc3cc(Cl)c(F)cc3C(C)(C)O)n2)c(OC)cc1N1CC[C@@H](N(C)C)C1,,human patients,"oral, 50 mg, treatment-emergent adverse events",patients with anaemia,33.3%
C[C@@H]1OC(=O)NN=C1c1ccc(-c2ccc(F)cc2)c(C(F)(F)F)c1,"phase I trial, refers to: Anaemia worst grade 1",human patients,5 mg once daily,patients with adverse event,0%
Cn1cncc1-c1c(F)cncc1NC(=O)c1c(N)nn2cc(F)cnc12,,human patients,"oral, 180 mg once daily, 2 weeks on 1 week off",patients grade ≥3 Hyponatremia,0%
COc1ccc(-c2c(-c3ccc(C#N)c(F)c3)nc(N3CCC(N)CC3)n(C)c2=O)cc1F,refers to: respiratory failure,human patients,"oral, 60 mg, dose expansion",patients with serious TEAE,5%
CN[C@@H](C)C(=O)N[C@H]1CN(S(=O)(=O)c2cccc(S(=O)(=O)N3CC[C@H]4CC[C@@H](C(=O)NC(c5ccccc5)c5ccccc5)N4C(=O)[C@@H](NC(=O)[C@H](C)NC)C3)c2)CC[C@H]2CC[C@@H](C(=O)NC(c3ccccc3)c3ccccc3)N2C1=O,,"human, advanced solid tumours","intravenous, 4 mg weekly, CTCAE version 4.0",patients with any TRAE,0%
COc1ncnn2ccc(-c3cnc4nc(C)n(Cc5nnc([C@@H](C)F)o5)c4c3)c12,,human,"oral, dose not given, grade 3",patients with nausea,0%
C[C@]1(O)C[C@@](N)(c2ccc(-c3nc4n(c3-c3ccccc3)COc3ccncc3-4)cc2)C1,,"human, advanced or metastatic solid tumours","dose not given, all patients",patients with grade ≥3 Hyperglycemia TEAE,5.9%
CN(C)C(=O)c1cc2cnc(Nc3ccc(N4CCNCC4)cn3)nc2n1C1CCCC1,"refers to: Infections, AESI","human, HR+/HER2− advanced breast cancer","oral, dose not given, grade 4, CTCAE v4.03",patients with adverse event,0%
Cn1nc(NS(C)(=O)=O)c2c(Cl)ccc(-n3c([C@H](Cc4cc(F)cc(F)c4)NC(=O)Cn4nc(C(F)F)c5c4C(F)(F)[C@@H]4C[C@H]54)nc4nc(OCCC(F)(F)F)ccc4c3=O)c21,refers to: LDL cholesterol grade 2 increase,human,"300 mg once daily, powder in bottle",patients with laboratory abnormality,13%
O=C1Nc2cc3[nH]nc(-c4ccncc4)c3cc2CN1Cc1ccccc1,CTCAE v4.03,"human, relapsed or refractory advanced solid tumours","intravenous, 4.8 mg/kg, pooled schedules",patients with subretinal fluid,25%

# A few entries again:
Structure (SMILES),assay,test system,setting,quantity,value
C[C@]1(O)C[C@@](N)(c2ccc(-c3nc4n(c3-c3ccccc3)COc3ccncc3-4)cc2)C1,,"human, advanced or metastatic solid tumours","dose not given, all patients",patients with grade ≥3 Hyperglycemia TEAE,5.9%
